Measurements gathered from unrelated publications.
Lines come from different studies, so protocols differ. ± marks the error that the study gave.
CYP3A4: Cytochrome P450 3A4 (CYP3A4, Homo sapiens, UniProt P08684)
UniProt P08684, sequence (whole entry, unmodified, looked up): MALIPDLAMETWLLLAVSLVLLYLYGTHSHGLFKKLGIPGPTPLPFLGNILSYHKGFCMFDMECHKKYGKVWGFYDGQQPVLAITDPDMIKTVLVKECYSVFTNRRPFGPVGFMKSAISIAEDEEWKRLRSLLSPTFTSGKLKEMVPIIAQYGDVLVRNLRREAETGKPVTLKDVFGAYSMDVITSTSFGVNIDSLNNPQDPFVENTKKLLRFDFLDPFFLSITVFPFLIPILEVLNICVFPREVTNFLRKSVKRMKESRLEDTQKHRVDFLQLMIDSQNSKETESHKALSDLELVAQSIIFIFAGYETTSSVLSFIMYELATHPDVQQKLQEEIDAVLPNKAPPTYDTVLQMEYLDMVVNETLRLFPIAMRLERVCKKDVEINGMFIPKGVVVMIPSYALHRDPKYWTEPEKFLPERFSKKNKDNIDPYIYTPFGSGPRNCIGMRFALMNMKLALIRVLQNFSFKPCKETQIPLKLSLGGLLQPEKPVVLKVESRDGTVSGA

`C[C@]12CCC(=O)C=C1CC[C@@H]1[C@@H]2CC[C@@]2(C)[C@H]1CC[C@@]2(O)C/C=C/C[C@]1(O)CC[C@H]2[C@@H]3CCC4=CC(=O)CC[C@]4(C)[C@H]3CC[C@@]21C` has an IC50 of 3000 nM (CYP3A4; enzyme activity, inhibitor).
`Cc1ncc2n1-c1ccc(Cl)cc1C(c1ccccc1F)=NC2` has a kfast of 0.15 ± 0.02 s⁻¹ (Cytochrome P450 3A4 (CYP3A4, Homo sapiens, UniProt P08684, C239T/C377A/C468S/C58A/C64M/C98A); ligand, stopped flow; 40 µM, pH 7.4, Cys-less variant).
The AUC(0-inf) of `Cc1ncc2n1-c1ccc(Cl)cc1C(c1ccccc1F)=NC2` is reported as 32 ± 8.3 ng·h/mL (CYP3A4; healthy female humans, plasma; oral, dose not given, day 1, probe cocktail alone).
For `C=CC[C@]1(O)CC[C@H]2[C@@H]3CC[C@H]4CC(=O)CC[C@]4(C)[C@H]3CC[C@@]21C`, the IC50 was 1000 nM (CYP3A4; enzyme activity, inhibitor).
For `COc1cc(/C=C/c2ccc(O)cc2)cc(OC)c1`, the inhibition was less than 50% (CYP3A4; enzyme activity, inhibitor; human, liver microsomes; 100 µM, 10 min, pH 7.4, midazolam probe).
`CC1=N[C@]2(C(=O)CO)[C@@H](C[C@H]3[C@@H]4C[C@@H](O)C5=CC(=O)C=C[C@]5(C)[C@H]4[C@@H](O)C[C@@]32C)O1` gave an IC50 of greater than 50000 nM (CYP3A4; enzyme activity, inhibitor; pooled human liver microsomes; 30 min preincubation without NADPH, together with: midazolam substrate).
The AUC ratio of `OCc1ncc2n1-c1ccc(Cl)cc1C(c1ccccc1F)=NC2` is reported as 0.335 (CYP3A4; human; 25 mg once daily, day 1, together with: midazolam 7.5 mg; reference: compound over midazolam).
For `C[C@]12CC[C@H]3[C@@H]([C@H](C/C=C/Cn4cc([C@]5(O)CC[C@H]6[C@@H]7CCc8cc(O)ccc8[C@H]7CC[C@@]65C)nn4)CC4=CC(=O)CC[C@@]43C)[C@@H]1CC[C@@H]2O`, the Kd was 2000 ± 100 nM (CYP3A4; binding, spectral titration; pH 7.4, room temperature).
For `O=C(O)C(F)(OC(F)(F)C(F)(F)C(F)(F)F)C(F)(F)F` (stereo not shown), the IC50 was greater than 100000 nM (CYP3A4; enzyme activity, inhibitor; Supersomes, together with: 7-BFC substrate).
With `OCCCCc1ccc2ccc3cccc4ccc1c2c34` the Kd was 7000 ± 50 nM (Cytochrome P450 3A4 (CYP3A4, Homo sapiens, UniProt P08684, F213W); FRET titration by dilution; pH 7.4, F213W mutant, excess substrate, enzyme:substrate 1:5, together with: HPCD 0.6 mg/mL).

Some of these lines once more:
For `C=CC[C@]1(O)CC[C@H]2[C@@H]3CC[C@H]4CC(=O)CC[C@]4(C)[C@H]3CC[C@@]21C`, the IC50 was 1000 nM (CYP3A4; enzyme activity, inhibitor).
For `COc1cc(/C=C/c2ccc(O)cc2)cc(OC)c1`, the inhibition was less than 50% (CYP3A4; enzyme activity, inhibitor; human, liver microsomes; 100 µM, 10 min, pH 7.4, midazolam probe).
